# Measured values gathered from unrelated publications.
# A part holds a random share of what one study measured.

# Sample 1 — observed: enzyme activity; mode: inhibitor; concentration: 10 µM
# Target: Calcium/calmodulin-dependent protein kinase type II subunit alpha (CAMK2A, Homo sapiens, UniProt Q9UQM7)
# Sequence of UniProt Q9UQM7 (whole entry, looked up): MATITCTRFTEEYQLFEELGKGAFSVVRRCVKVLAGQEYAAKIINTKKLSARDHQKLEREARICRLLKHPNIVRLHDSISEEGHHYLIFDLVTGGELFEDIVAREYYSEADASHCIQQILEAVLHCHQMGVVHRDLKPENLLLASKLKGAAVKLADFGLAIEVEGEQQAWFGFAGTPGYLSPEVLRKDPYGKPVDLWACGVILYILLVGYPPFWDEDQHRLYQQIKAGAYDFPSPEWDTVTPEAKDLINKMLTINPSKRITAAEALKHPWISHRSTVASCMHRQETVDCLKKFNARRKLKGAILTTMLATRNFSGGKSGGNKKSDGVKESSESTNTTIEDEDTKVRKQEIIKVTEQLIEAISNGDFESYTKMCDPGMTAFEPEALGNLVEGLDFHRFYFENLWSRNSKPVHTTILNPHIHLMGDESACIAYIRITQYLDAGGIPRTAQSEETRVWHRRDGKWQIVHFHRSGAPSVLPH
Structure (SMILES),inhibition [%]
C=C[C@H]1CN2CC[C@]3(C(=O)Nc4ccccc43)[C@@H]2C[C@@H]1/C(=C\OC)C(=O)OC,-77
c1ccc2c(c1)Nc1ccccc1S2,3
Nc1ncnc2c1ncn2[C@@H]1O[C@H](COP(N)(=O)O)[C@@H](O)[C@H]1O,11
CN(C)[C@@H]1C(=O)C(C(N)=O)=C(O)[C@@]2(O)C(=O)C3=C(O)c4c(O)cccc4[C@@](C)(O)[C@H]3[C@H](O)[C@@H]12,-2
COC(=O)c1ccccc1C(=O)OC,12
COc1ccc(C=O)cc1OC,2
Oc1cc(Cl)ccc1Oc1ccc(Cl)cc1Cl,-12
COC[C@]12CN(C)C3[C@@H]4[C@H](OC)[C@H]1[C@@]3([C@@H](OC)C[C@H]2O)[C@]1(O)C[C@@]2(O)[C@H](OC(=O)c3ccccc3)[C@@H]1[C@]4(OC(C)=O)[C@@H](O)[C@@H]2OC,3
O=c1cccc2n1C[C@@H]1CNC[C@H]2C1,-13
CCOC1c2c(ccc3c2OCO3)-c2ccc3cc4c(cc3c2N1C)OCO4 (centres unmarked),-16

# Sample 2 — observed: cell-free assay; technique: competition with immobilised ligand; concentration: 1 µM
# Target: Serine/threonine-protein kinase PknB (pknB, Mycobacterium tuberculosis, UniProt P9WI81)
# Sequence of UniProt P9WI81 (whole entry, looked up): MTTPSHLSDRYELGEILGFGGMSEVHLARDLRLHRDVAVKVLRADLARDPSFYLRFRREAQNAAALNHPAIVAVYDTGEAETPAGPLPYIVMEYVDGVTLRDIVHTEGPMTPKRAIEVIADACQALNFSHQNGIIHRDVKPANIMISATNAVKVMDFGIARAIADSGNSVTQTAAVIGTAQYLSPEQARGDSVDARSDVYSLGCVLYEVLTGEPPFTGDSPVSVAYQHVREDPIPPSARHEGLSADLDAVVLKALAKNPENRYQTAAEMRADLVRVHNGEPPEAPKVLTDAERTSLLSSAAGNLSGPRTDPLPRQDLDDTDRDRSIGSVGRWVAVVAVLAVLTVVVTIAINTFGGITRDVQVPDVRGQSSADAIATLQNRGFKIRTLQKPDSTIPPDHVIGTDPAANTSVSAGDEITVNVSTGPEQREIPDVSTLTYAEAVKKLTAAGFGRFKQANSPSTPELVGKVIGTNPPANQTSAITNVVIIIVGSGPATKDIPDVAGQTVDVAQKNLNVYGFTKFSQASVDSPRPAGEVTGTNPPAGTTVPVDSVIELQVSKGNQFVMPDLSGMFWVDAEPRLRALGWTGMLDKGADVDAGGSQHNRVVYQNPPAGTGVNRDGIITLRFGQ
Compound,remaining binding [%]
CCS(=O)(=O)c1cc2cc(C[C@@](O)(CC(C)(C)c3ccc(F)cc3C(N)=O)C(F)(F)F)[nH]c2cn1,84
Cc1nccc(COC(=O)N2C[C@@H]3[C@@H](CNC(=O)c4ccc5[nH]nnc5c4)[C@@H]3C2)n1,100
CO[C@@H](C)c1c(Nc2ccc([C@H](N(C)C(=O)C3CCS(=O)(=O)CC3)C(F)(F)F)cc2)cnc2cc(Cl)nn12,87
NS(=O)(=O)c1cc(NC(=O)Cc2ccccc2)ccc1Oc1cccc(Cl)c1,89
N#CC1(c2ccccn2)CCN(Cc2cc(C(=O)N3CCCC3)c(=O)n3ccccc23)CC1,92

# Sample 3 — observed: enzyme activity; mode: inhibitor; concentration: 77 µM; baseline: untreated
# Target: DNA polymerase theta, ATPase domain (POLQ, Homo sapiens, UniProt O75417)
# Sequence of UniProt O75417 (whole entry, unmodified, looked up): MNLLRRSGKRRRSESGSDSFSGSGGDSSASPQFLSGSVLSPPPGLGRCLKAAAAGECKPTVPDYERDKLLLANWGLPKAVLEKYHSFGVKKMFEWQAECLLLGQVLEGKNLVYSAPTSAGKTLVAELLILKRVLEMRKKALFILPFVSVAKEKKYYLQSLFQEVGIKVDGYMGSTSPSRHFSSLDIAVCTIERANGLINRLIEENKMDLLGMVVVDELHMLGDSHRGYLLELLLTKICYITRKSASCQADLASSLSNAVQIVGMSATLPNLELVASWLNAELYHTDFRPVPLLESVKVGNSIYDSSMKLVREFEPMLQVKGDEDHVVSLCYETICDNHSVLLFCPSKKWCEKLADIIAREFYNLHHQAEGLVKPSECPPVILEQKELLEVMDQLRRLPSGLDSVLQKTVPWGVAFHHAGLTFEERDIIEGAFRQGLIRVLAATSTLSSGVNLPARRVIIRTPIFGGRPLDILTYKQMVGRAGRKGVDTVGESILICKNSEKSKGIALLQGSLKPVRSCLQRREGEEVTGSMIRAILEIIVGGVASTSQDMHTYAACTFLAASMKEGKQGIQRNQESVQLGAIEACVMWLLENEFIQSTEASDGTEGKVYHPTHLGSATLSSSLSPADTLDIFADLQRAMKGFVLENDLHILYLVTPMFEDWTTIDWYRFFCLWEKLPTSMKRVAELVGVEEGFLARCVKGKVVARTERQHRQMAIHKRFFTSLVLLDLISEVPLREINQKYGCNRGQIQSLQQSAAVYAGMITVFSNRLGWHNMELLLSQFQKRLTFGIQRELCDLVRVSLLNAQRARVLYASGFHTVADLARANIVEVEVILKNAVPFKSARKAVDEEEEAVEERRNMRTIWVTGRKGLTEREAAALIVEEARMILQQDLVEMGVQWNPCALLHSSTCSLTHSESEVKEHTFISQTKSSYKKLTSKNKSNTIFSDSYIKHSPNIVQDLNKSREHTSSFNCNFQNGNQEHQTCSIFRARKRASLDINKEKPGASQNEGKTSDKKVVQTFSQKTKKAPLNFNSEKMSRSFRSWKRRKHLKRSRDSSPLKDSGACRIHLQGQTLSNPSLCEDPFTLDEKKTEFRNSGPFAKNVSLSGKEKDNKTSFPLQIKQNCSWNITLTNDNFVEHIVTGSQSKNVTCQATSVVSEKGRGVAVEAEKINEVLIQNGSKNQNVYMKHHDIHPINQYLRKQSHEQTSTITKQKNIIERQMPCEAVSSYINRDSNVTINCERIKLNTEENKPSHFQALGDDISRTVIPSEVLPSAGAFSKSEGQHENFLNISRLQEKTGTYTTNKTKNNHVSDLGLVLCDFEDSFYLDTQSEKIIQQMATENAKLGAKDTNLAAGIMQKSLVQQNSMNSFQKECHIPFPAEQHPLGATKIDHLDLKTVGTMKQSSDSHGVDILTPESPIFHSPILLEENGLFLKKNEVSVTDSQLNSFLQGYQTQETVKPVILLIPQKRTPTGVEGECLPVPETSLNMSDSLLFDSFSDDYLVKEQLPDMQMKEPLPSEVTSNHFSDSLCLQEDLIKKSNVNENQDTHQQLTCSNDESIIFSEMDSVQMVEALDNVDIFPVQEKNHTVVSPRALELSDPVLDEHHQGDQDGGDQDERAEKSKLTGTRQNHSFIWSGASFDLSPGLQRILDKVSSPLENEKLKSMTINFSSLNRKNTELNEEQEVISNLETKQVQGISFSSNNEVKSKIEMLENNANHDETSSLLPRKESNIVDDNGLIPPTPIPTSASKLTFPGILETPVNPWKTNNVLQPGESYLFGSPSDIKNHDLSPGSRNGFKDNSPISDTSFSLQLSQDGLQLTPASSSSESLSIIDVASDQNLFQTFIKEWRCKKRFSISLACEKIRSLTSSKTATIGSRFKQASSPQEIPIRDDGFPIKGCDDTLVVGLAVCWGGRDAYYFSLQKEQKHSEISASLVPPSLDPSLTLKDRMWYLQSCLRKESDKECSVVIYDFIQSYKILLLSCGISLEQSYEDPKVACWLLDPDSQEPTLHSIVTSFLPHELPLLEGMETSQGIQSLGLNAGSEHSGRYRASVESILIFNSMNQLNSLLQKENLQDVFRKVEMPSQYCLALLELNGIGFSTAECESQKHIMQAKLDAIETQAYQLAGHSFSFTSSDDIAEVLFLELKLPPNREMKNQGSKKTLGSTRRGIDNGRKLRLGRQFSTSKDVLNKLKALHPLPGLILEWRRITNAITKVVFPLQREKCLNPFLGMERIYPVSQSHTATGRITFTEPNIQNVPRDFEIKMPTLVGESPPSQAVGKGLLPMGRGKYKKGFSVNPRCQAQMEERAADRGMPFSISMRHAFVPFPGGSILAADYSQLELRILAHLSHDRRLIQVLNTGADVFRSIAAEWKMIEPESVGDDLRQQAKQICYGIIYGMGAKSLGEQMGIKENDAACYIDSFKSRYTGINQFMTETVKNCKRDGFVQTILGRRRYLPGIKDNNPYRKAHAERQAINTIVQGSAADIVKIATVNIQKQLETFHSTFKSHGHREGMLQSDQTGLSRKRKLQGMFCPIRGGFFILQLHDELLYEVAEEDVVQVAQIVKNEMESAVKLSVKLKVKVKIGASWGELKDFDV
Compound,remaining activity [%]
NCCc1ccc(O)cc1,110
NC(=O)CN1CC(O)CC1=O (centres unmarked),99.5
C=C1C[C@@H]2[C@H](CC[C@]3(C)C(=O)CC[C@@H]23)[C@@]2(C)C=CC(=O)C=C12,108
CC(C)NP(=O)(NC(C)C)OP(=O)(NC(C)C)NC(C)C,97.1
O=S1(=O)N(CCN2CC=C(c3c[nH]c4cc(F)ccc34)CC2)c2cccc3c2N1CCC3,102
O=C1NC(=O)c2c1c1c3ccccc3n3c1c1c2c2ccccc2n1[C@H]1CC[C@@H]3O1,95.1

# Further values, each from its own experiment — concentration: 50 µM
# Target: Bromodomain-containing protein 4, BD1 (BRD4, Homo sapiens, UniProt O60885)
Compound,inhibition [%]
Cn1cc(C2=C(c3cn(C4CCN(Cc5ccccn5)CC4)c4ccccc34)C(=O)NC2=O)c2ccccc21,80.5
COC[C@H]1OC(=O)c2coc3c2[C@@]1(C)C1=C(C3=O)[C@@H]2CCC(=O)[C@@]2(C)C[C@H]1OC(C)=O,4.05

# A few entries again (sample 1):
Structure (SMILES),inhibition [%]
C=C[C@H]1CN2CC[C@]3(C(=O)Nc4ccccc43)[C@@H]2C[C@@H]1/C(=C\OC)C(=O)OC,-77
c1ccc2c(c1)Nc1ccccc1S2,3
CCOC1c2c(ccc3c2OCO3)-c2ccc3cc4c(cc3c2N1C)OCO4 (centres unmarked),-16
COC[C@]12CN(C)C3[C@@H]4[C@H](OC)[C@H]1[C@@]3([C@@H](OC)C[C@H]2O)[C@]1(O)C[C@@]2(O)[C@H](OC(=O)c3ccccc3)[C@@H]1[C@]4(OC(C)=O)[C@@H](O)[C@@H]2OC,3
